Published values collected from several papers.
Lines come from different studies, so protocols differ. Values joined by “and” are separate records of one study, mostly repeats; a detail may differ. Numbers after ± are the reported error.
ACHE: Acetylcholinesterase (ACHE, Homo sapiens, UniProt P22303)

`O=S(=O)([O-])C(F)(F)C(F)(F)C(F)(F)C(F)(F)C(F)(F)C(F)(F)C(F)(F)C(F)(F)F.[K+]` — result for mRNA level: “increased” (RT-qPCR, measured: Cyp4a10; mouse, ethanol-fed, liver; dose not given; reference: efavirenz).
`Oc1ccc2c3c1O[C@H]1[C@@H](O)CC[C@@]4(O)[C@@H](C2)N(CC2CCC2)CC[C@]314` — result for “log2 fold change”: 0.33 (G-protein coupled receptor 143 (GPR143, Homo sapiens, UniProt P51810); β-arrestin recruitment, TANGO luminescence; concentration not given; reference: basal luminescence).
Under IC50, `CC[C@H](NC(=O)[C@H](CS(=O)(=O)CC1CC1)N[C@@H](c1ccc(F)cc1)C(F)(F)F)C(=O)C(=O)NC1CC1` is recorded as “inactive” (ACHE; enzyme activity, inhibitor).
`CN1CCN(c2cc(-c3ccncc3)c(-c3ccc4ccccc4c3)nn2)CC1` gave an activation of 5.4% (MRGPRD (Homo sapiens, UniProt Q8TDS7); agonist, FLIPR; 12.5 µM).
`O=C(O)c1nccnc1NC(=O)c1cccc2ccccc12` has an inhibition of 95.5% (Aspartate 1-decarboxylase (panD, Mycobacterium tuberculosis, UniProt P9WIL3); β-alanine production; 200 µM, 40 min, 298 K, together with: L-aspartate 2 mM).
For `Brc1ccc2c(c1)C(c1ccccn1)=NCc1c(-c3cnco3)ncn1-2`, the selectivity ratio was 1.42 (Gamma-aminobutyric acid receptor subunit gamma-2 / Gamma-aminobutyric acid receptor subunit alpha-5, with β3 subunit (Homo sapiens, UniProt P18507+P31644); [3H]flunitrazepam binding; reference: α5β3γ2 over α1β3γ2 GABA-A).
The inhibition of `COc1ccc(N2C(=O)N(c3c(C)cccc3Cl)Cc3cnc(Nc4ccc(C5CCN(C)CC5)cc4OC)nc32)nc1` is reported as 3% (Serine/threonine-protein kinase N2 (PKN2, Homo sapiens, UniProt Q16513); kinase activity; 0.5 µM).
`O=C(c1ccc(Cl)cc1)N1CCN2C(=O)N(OC(=O)N3CCOc4ccccc43)C(=O)C2C1` (stereo not shown) has a median ratio of 1 (Monoacylglycerol lipase ABHD2 (ABHD2, Homo sapiens, UniProt P08910); enzyme activity, inhibitor, MS-based ABPP; SW-620 in situ; 10 µM, 2 h, 37 °C; reference: compound over DMSO, lower = stronger inhibition).
For `CCOc1ccccc1C(=O)Nc1ccc(Cl)c(C(F)(F)F)c1`, “SPR binding response” read 0.201 RU (Histone acetyltransferase KAT5 (KAT5, Homo sapiens, UniProt Q92993); SPR; 5.56 µM; higher = more binding).
`c1ccc2cc([C@]34CNC[C@H]3C4)ccc2c1` gave a dopamine uptake of 68.2% and 59.3% and 64.7% (Sodium-dependent dopamine transporter (SLC6A3, Homo sapiens, UniProt Q01959, V152A); inhibitor, [3H]dopamine uptake; 100 nM, V152A mutant; reference: no inhibitor).
Under IC50, `CCOC(=O)C1(CCOc2ccccc2)CCN(Cc2ccc(O)c(Cl)c2)CC1` is recorded as “inactive” (ACHE; enzyme activity, inhibitor).
The remaining binding of `[2H]c1c([2H])c([C@]2([2H])CCCN2C(=O)C(C)(C)Oc2ccc3cn[nH]c3c2)c([2H])c([2H])c1C([2H])([2H])[2H]` is reported as 57% (Serine/threonine-protein kinase 32C (STK32C, Homo sapiens, UniProt Q86UX6); KINOMEscan; 1 µM; reference: DMSO control).
`CN1CC[C@]23c4c5ccc(O)c4O[C@H]2[C@@H](O)C=C[C@H]3[C@H]1C5` gave an EC50 of 157 ± 18 nM (G-protein activation, agonist; mouse brain homogenate).
Under IC50, `O=C(NCCCNc1nc(Nc2cccc(CN3CCOCC3)c2)ncc1C1CC1)C1CCC1` is recorded as “inactive” (ACHE; enzyme activity, inhibitor).
With `C[C@H]1CN(c2n[nH]c3nc(N[C@H]4CC[C@H](NS(=O)(=O)CCC(F)(F)F)CC4)ncc23)CCO1` the relative abundance was 0.97 (Exportin-2 (Homo sapiens, UniProt P55060); competitor, Kinobeads competition; human cell extract; 0.032 µM; reference: vehicle).
`Br.CN1CCC[C@@H]1Cc1c[nH]c2ccc(CCS(=O)(=O)c3ccccc3)cc12`: IC50 “inactive” (ACHE; enzyme activity, inhibitor).
Under “log2 fold change”, `CC[C@H](C)[C@H](NC(=O)CNC(=O)[C@@H](N)CCCCN)C(=O)N[C@@H](CC(C)C)C(=O)N[C@@H](CCCCN)C(=O)N[C@@H](CCCNC(=N)N)C(=O)N[C@@H](CCC(=O)O)C(=O)N[C@@H](CCCCN)C(=O)N[C@@H](CCCNC(=N)N)C(=O)N[C@@H](CC(C)C)C(=O)N[C@@H](CCCNC(=N)N)C(=O)N[C@@H](CCCNC(=N)N)C(=O)N[C@@H](CCCCN)C(=O)N[C@@H](CC(N)=O)C(=O)N[C@H](C(=O)N[C@@H](Cc1c[nH]cn1)C(=O)N[C@@H](Cc1c[nH]c2ccccc12)C(=O)N1CCC[C@H]1C(=O)N[C@@H](CCC(=O)O)C(=O)N[C@@H](CCC(=O)O)C(=O)NCC(=O)N[C@@H](CCCCN)C(=O)N[C@@H](CC(C)C)C(=O)N[C@@H](CCCNC(=N)N)C(=O)N[C@@H](CCC(=O)O)C(=O)N[C@@H](Cc1ccccc1)C(=O)N[C@@H](Cc1ccccc1)C(=O)N[C@@H](Cc1ccccc1)C(=O)N[C@@H](Cc1ccccc1)C(=O)N[C@@H](CCC(=O)O)C(=O)N[C@@H](CC(C)C)C(=O)N[C@@H](CC(=O)O)C(=O)N[C@@H](CCC(=O)O)C(=O)N[C@@H](C)C(=O)N[C@@H](CCC(=O)O)C(=O)N[C@@H](CCCNC(=N)N)C(=O)N[C@H](C(=O)N[C@@H](CC(N)=O)C(=O)N[C@H](C(=O)O)C(C)C)C(C)C)C(C)C` is recorded as -0.00868 (HeLa and HEK-293T cells; phosphatase bead binding, competitive inhibitor, PIB pulldown iBAQ LC-MS/MS, measured: PPP6R3; concentration not given; reference: untreated control).
`CC[C@H]1CN2CC[C@H]1C[C@H]2[C@H](O)c1ccnc2ccc(OC)cc12`: IC50 “inactive” (ACHE; enzyme activity, inhibitor).
The inhibition of `CCOc1ccc(CNCCc2ccc3c(c2)OCO3)cc1` is reported as -1% (Trypanosoma cruzi; reporter translation, Renilla luciferase mRNA translation; cell-free extract; 40 µM; reference: DMSO).
